{"data": "Published values from different studies", "note": "Every numbered part comes from another study and shows a few of its results, in no order. Positions count from the first letter of the parent shown."}
{"data": "Set 1", "target": "CCNB3, cyclin fold, Cln2 fusion (human)", "method": "yeast growth competition, sequencing", "medium": "yeast", "setting": "weak parent motif", "baseline": "not given", "direction": "higher = stronger binding", "starting sequence": "MICAL3 docking peptide (human); LQLRRQLSFSEDS; partner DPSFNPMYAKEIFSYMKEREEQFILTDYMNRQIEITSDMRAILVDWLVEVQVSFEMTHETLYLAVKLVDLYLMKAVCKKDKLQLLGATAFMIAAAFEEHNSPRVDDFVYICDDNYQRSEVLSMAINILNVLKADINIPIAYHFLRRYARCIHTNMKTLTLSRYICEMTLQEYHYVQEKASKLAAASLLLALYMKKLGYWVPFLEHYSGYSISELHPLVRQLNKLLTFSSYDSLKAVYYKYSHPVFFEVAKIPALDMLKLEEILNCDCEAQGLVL"}
{"Variant": "LQLRRQLSFSEVS [D12V]", "normalised enrichment score": 0.398}
{"Variant": "LQLRQQLSFSEDS [R5Q]", "normalised enrichment score": -0.0606}
{"Variant": "LQLRRQLSFSMDS [E11M]", "normalised enrichment score": -0.0763}
{"Variant": "LQLRSQLSFSEDS [R5S]", "normalised enrichment score": -0.127}
{"Variant": "LQLRRQLSGSEDS [F9G]", "normalised enrichment score": 0.283}
{"Variant": "LQLRRQLSFSDDS [E11D]", "normalised enrichment score": -0.0341}
{"Variant": "LHLRRQLSFSEDS [Q2H]", "normalised enrichment score": 0.264}
{"Variant": "LQLRRQASFSEDS [L7A]", "normalised enrichment score": -0.0693}
{"Variant": "LQLRYQLSFSEDS [R5Y]", "normalised enrichment score": 0.394}
{"Variant": "LQLRRQLSFSECS [D12C]", "normalised enrichment score": 0.224}
{"Variant": "LQLRRQLSQSEDS [F9Q]", "normalised enrichment score": 0.128}
{"Variant": "LQLRRQLSSSEDS [F9S]", "normalised enrichment score": -0.225}
{"Variant": "LQLRRQLSASEDS [F9A]", "normalised enrichment score": -0.173}
{"Variant": "LQLRVQLSFSEDS [R5V]", "normalised enrichment score": 0.145}
{"Variant": "LQLRRQLSFNEDS [S10N]", "normalised enrichment score": 0.147}
{"Variant": "LQLPRQLSFSEDS [R4P]", "normalised enrichment score": 0.122}
{"Variant": "LQVRRQLSFSEDS [L3V]", "normalised enrichment score": 0.746}
{"Variant": "LQERRQLSFSEDS [L3E]", "normalised enrichment score": -0.0704}
{"Variant": "LGLRRQLSFSEDS [Q2G]", "normalised enrichment score": -0.0949}
{"Variant": "LQLRRQDSFSEDS [L7D]", "normalised enrichment score": -0.42}
{"Variant": "LPLRRQLSFSEDS [Q2P]", "normalised enrichment score": 0.382}
{"Variant": "LQLRRQHSFSEDS [L7H]", "normalised enrichment score": -0.00877}
{"Variant": "LELRRQLSFSEDS [Q2E]", "normalised enrichment score": 0.227}
{"Variant": "LQLLRQLSFSEDS [R4L]", "normalised enrichment score": 0.278}
{"Variant": "LQLRRQLSFSNDS [E11N]", "normalised enrichment score": 0.41}
{"data": "Set 2", "Substance": "PhoQ, residues 284 288 289 292 302 303 SSTLLI", "method": "Sort-seq", "refers to": "YFP reporter", "medium": "E. coli", "setting": "PhoQ-PhoP variant library", "added": "10 µM Mg2+", "baseline": "high Mg2+ state", "direction": "higher = stronger signaling"}
{"target": "PhoP, residues 12 14 15 18 19 TQALL (Escherichia coli, UniProt P23836)", "fold induction": 14.7}
{"target": "PhoP, residues 12 14 15 18 19 QYFSL (Escherichia coli, UniProt P23836)", "fold induction": 11.9}
{"target": "PhoP, residues 12 14 15 18 19 NYFRM (Escherichia coli, UniProt P23836)", "fold induction": 6.91}
{"data": "Set 3", "target": "MAFG, bZIP domain (human)", "method": "DHFR protein complementation", "medium": "yeast", "setting": "single substitutions, most at no-binding floor", "baseline": "wild-type JUN-FOS pair", "direction": "higher = stronger binding", "starting sequence": "JUN, bZIP domain (human); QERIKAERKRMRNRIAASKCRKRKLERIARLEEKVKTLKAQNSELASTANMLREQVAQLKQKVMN; partner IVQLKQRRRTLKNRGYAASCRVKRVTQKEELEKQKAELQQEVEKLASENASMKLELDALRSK"}
{"Variant": "T48A", "binding fitness": "-1.37 natural log"}
{"Variant": "L52P", "binding fitness": "-1.54 natural log"}
{"Variant": "L52D", "binding fitness": "-1.42 natural log"}
{"Variant": "A40W", "binding fitness": "-1.55 natural log"}
{"Variant": "Q41G", "binding fitness": "-1.43 natural log"}
{"Variant": "R53S", "binding fitness": "-1.22 natural log"}
{"Variant": "Q55L", "binding fitness": "-1.48 natural log"}
{"Variant": "A57G", "binding fitness": "-1.39 natural log"}
{"Variant": "A49G", "binding fitness": "-1.4 natural log"}
{"Variant": "E33I", "binding fitness": "-0.985 natural log"}
{"Variant": "M51G", "binding fitness": "-1.37 natural log"}
{"Variant": "R53P", "binding fitness": "-1.47 natural log"}
{"Variant": "A57N", "binding fitness": "-1.06 natural log"}
{"Variant": "E54P", "binding fitness": "-1.44 natural log"}
{"Variant": "A57P", "binding fitness": "-1.5 natural log"}
{"Variant": "V56R", "binding fitness": "-1.53 natural log"}
{"Variant": "K34V", "binding fitness": "-1.46 natural log"}
{"data": "Set 4", "target": "Fragile X messenger ribonucleoprotein 1, C-terminal low-complexity region (Fmr1, Mus musculus, UniProt P35922)", "method": "RNA Bind-n-Seq", "form": "RNA", "medium": "in vitro", "concentration": "200 nM", "setting": "whole 134-nt RNA, ends assumed", "added": "150 mM KCl", "baseline": "input library", "direction": "higher = stronger binding"}
{"Strand": "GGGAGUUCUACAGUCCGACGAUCGUUUGAUGAUCGUGGACGGAGUGAUUACGAUGGCAUUGGCAGCCGUGGUGACAGAAGUGGCUUUGGCAAAUUUGAACGUGGUGGAAACAGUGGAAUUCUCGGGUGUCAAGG", "log2 enrichment": 0.41}
{"Strand": "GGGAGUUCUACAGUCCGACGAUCCAAGUCCUGUGCUACACAUCGUAUGUACCGAAUCGGGGUUUGGGGUGGGGAGGGGAAAGUAUUAUGUUACGCCGUUCGGAUCUGCACUUCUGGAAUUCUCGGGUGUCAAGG", "log2 enrichment": 1.27}
{"Strand": "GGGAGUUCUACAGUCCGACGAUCCUCAAGUCCUGUGCUACACAUCGUAUGUACCGAAUCGGGGUUGGUUGGUUGGGAAAGUAUUAUGUUACGCCGUUCGGAUCUGCACUUCCAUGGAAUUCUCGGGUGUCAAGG", "log2 enrichment": 0.233}
{"Strand": "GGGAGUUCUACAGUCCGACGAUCUUAAAGAAGAGGGUGUGCGGGACGUCCUUAAGGAUGUACUGCUCCCAUGGUACAAUGCCUAUCGCUUCUUAAUCCAGAACGUUCUGAGGCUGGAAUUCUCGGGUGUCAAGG", "log2 enrichment": -1.45}
{"Strand": "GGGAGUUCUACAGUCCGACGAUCAGUCCUGUGCUACACAUCGUAUGUACCGAAUCGGGAAAAAGGGAAAAAGGGAAAAAGGAAAGUAUUAUGUUACGCCGUUCGGAUCUGCACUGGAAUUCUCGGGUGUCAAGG", "log2 enrichment": -0.418}
{"Strand": "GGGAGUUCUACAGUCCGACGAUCACCAUGCAGGUGGGCAUCUUUGGGAAGUGGGGCAAGGGGGAAAUAGGGAGGGGGGUAACACUUUGGGAACAGGUGGUCCCAGGUCGUUUCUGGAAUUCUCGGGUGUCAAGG", "log2 enrichment": 0.709}
{"Strand": "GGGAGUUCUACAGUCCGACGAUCCACAGACAACACGCACCCACACAGACACAGAGGGAAGGGGUUGGGAUGGGGACAGGGUGCACAUCAGGGCGGGGUAGGACCCCAGCCCCUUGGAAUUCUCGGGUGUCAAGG", "log2 enrichment": 1.26}
{"Strand": "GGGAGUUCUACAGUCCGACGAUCUCAAGUCCUGUGCUACACAUCGUAUGUACCGAAUCGGUUUUUGGUGGUUUUUGGAAAGUAUUAUGUUACGCCGUUCGGAUCUGCACUUCCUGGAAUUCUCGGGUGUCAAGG", "log2 enrichment": -0.454}
{"Strand": "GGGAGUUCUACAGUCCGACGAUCCCUGUGCUACACAUCGUAUGUACCGAAUCAAAUUUUUUUAAACCCCCAAACCCCCCCAAAAAAGUAUUAUGUUACGCCGUUCGGAUCUGCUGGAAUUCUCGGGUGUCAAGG", "log2 enrichment": -0.189}
{"note": "For quick reference, copied from above (set 3):"}
{"Variant": "A57G", "binding fitness": "-1.39 natural log"}
{"Variant": "Q55L", "binding fitness": "-1.48 natural log"}
{"Variant": "L52P", "binding fitness": "-1.54 natural log"}
{"Variant": "A49G", "binding fitness": "-1.4 natural log"}
